Experimental data collected from several papers.
Parts stem from different laboratories: compare values within a part only. Positions count from the first letter of the parent shown.
UniProt P51957, sequence (whole entry, looked up): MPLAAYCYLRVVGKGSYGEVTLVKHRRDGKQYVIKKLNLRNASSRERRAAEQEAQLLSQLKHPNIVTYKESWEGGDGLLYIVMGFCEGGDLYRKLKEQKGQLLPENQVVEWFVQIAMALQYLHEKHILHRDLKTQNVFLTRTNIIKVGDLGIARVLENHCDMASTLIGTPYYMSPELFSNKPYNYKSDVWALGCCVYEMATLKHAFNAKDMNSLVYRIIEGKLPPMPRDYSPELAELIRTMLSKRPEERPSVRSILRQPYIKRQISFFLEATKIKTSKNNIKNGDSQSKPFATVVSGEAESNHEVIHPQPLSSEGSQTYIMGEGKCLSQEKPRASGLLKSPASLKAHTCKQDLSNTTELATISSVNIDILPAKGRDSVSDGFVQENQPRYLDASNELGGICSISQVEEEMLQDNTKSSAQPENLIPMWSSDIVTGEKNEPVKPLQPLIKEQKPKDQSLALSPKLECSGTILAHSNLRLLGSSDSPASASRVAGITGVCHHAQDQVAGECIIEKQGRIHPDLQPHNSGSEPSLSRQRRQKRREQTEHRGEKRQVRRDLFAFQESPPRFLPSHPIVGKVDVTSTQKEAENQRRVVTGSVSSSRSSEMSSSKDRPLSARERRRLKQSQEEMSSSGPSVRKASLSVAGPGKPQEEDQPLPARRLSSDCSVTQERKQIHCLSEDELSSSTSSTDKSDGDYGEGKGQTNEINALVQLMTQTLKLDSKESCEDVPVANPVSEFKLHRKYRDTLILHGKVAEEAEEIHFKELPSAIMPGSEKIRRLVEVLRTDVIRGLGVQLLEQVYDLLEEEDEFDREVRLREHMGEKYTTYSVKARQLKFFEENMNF

Block 1
Target: CCNB3, cyclin fold, Cln2 fusion (human)
Technique: yeast growth competition, sequencing
Sample: yeast
Setting: weak parent motif
Reference: not given
Direction: higher = stronger binding
Starting sequence: LLGL2 docking peptide (human); KSLKKSLRQSFRR
Change | normalised enrichment score
KSAKKSLRQSFRR [L3A] | -0.037
KSLKKSARQSFRR [L7A] | 0.303
KSLKKSLRQSARR [F11A] | -0.181
ASLKKSLRQSFRR [K1A] | 0.479
KSLKKSLRQAFRR [S10A] | 0.242
KSLKKSLRQSFRA [R13A] | 0.449
KSLKKSLRASFRR [Q9A] | 0.696

Block 2
Partner: ARF16 570-670 (Arabidopsis thaliana, UniProt Q93YR9)
Technique: two-hybrid
Reference: out of 4 tests
Direction: higher = firmer interaction
B1: IAA15 (Arabidopsis thaliana, UniProt Q9C966); chain MSPEEYVRVWPDSGDLGGTELTLALPGTPTNASEGPKKFGNKRRFLETVDLKLGEAHENNYISSMVTNDQLVGWPPVATARKTVRRKYVKVALDGAAYLRKVDLGMYDCYGQLFTALENMFQGIITICRVTELERKGEFVATYEDKDGDLMLVGDVPWMMFVESCKRMRLMKTGDAIGL
B2: IAA14 (Arabidopsis thaliana, UniProt Q38832); chain MNLKETELCLGLPGGTETVESPAKSGVGNKRGFSETVDLKLNLQSNKQGHVDLNTNGAPKEKTFLKDPSKPPAKAQVVGWPPVRNYRKNVMANQKSGEAEEAMSSGGGTVAFVKVSMDGAPYLRKVDLKMYTSYKDLSDALAKMFSSFTMGSYGAQGMIDFMNESKVMDLLNSSEYVPSYEDKDGDWMLVGDVPWPMFVESCKRLRIMKGSEAIGLAPRAMEKFKNRS
B3: IAA27 (Arabidopsis thaliana, UniProt Q9ZSY8); chain MSVSVAAEHDYIGLSEFPTMEATTMSDKTKTRDNNNGLNFKATELRLGLPGSESPERVDSRFLALNKSSCPVSGAKRVFSDAINDSNKWVFSPGSTTATGDVGSGSGPRTSVVKDGKSTTFTKPAVPVKEKKSSATAPASKAQVVGWPPIRSFRKNSMASSQSQKPGNNSETEEAEAKSGPEQPCLYVKVSMEGAPYLRKIDLKTYKSYLELSSALEKMFSCFTIGQFGSHGGCGRDGLNESRLTDLLRGSEYVVTYEDKDSDWMLVGDVPWEMFICSCKKLRIMKSSEAIGLAPRVMEKCRSRN
B4: ARF12 500-593 (Arabidopsis thaliana, UniProt Q9XID4); chain TEIQNKQFSSSRTCTKVQMQGVTIGRAVDLSVLNGYDQLILELEKLFDIKGQLQTRNQWEIAFTDSDEDKMLVGDDPWPEFCNMVKKIFIQKRR
Target sequence (chain): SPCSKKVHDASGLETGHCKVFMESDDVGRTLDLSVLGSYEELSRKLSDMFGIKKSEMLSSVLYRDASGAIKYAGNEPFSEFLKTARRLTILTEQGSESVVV
Molecule | positive tests
B1 (IAA15) | 1
B2 (IAA14) | 0
B3 (IAA27) | 0
B4 (ARF12 500-593) | 0

Block 3
Target: Prothrombin, mature alpha-thrombin (F2, Homo sapiens, UniProt P00734)
Technique: aptamer microarray, sandwich
Form: DNA with 2'F-ANA
Sample: in vitro
Tested at: 200 nM
Setting: whole 15-mer aptamer, many near background
Added: Cy3 exosite-II aptamer, 400 nM
Direction: higher = stronger binding
Sequence: GGTTGGTGTGGTTGG
Modification | mean fluorescence intensity [a.u.]
2'F-ANA at 1 2 5 7 9 10 11 13 14 15 | 64.3
2'F-ANA at 2 4 5 6 7 8 10 11 13 14 | 58.6
2'F-ANA at 3 4 8 9 11 12 13 14 | 290
2'F-ANA at 1 2 3 4 6 7 13 15 | 101
2'F-ANA at 2 3 9 12 13 15 | 878
2'F-ANA at 1 3 4 7 9 10 11 12 13 14 15 | 61
2'F-ANA at 1 2 3 5 7 9 10 12 14 | 47.2
2'F-ANA at 2 3 6 7 9 10 11 12 14 | 240

Other studies, line by line
SMILES | target | observed | technique | tested at | quantity | result
O=C1NC(c2ccccn2)Sc2ccccc21 (centres unmarked) | Serine/threonine-protein kinase Nek4 (NEK4, Homo sapiens, UniProt P51957) | cell-free assay | competition with immobilised ligand | 1 µM | remaining binding | 58%

Repeated from above (block 1):
Change | normalised enrichment score
KSLKKSLRQAFRR [S10A] | 0.242
KSLKKSLRASFRR [Q9A] | 0.696
